{"data": "Measurements from different studies", "note": "A part holds a random share of what one study measured. “And” joins repeats or separate records; there may be more than shown.", "UniProt P35348, sequence (whole entry, looked up)": "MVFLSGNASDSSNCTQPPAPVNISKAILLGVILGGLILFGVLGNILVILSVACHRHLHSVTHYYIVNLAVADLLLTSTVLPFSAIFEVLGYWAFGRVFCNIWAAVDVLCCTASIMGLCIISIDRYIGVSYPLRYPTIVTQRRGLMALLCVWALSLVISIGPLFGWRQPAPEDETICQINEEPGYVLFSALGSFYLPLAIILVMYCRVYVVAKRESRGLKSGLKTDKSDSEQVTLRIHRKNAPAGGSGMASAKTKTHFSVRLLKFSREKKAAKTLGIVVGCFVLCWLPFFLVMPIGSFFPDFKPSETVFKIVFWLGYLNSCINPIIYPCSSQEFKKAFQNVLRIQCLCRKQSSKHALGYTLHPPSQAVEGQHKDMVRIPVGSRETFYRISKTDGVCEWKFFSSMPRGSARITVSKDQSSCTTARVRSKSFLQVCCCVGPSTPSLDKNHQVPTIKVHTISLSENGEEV"}
{"data": "Series 1", "target": "Calcium/calmodulin-dependent protein kinase type II subunit alpha (CAMK2A, Homo sapiens, UniProt Q9UQM7)", "effect on": "enzyme activity", "mode": "inhibitor", "tested at": "10 µM", "UniProt Q9UQM7, sequence (whole entry, looked up)": "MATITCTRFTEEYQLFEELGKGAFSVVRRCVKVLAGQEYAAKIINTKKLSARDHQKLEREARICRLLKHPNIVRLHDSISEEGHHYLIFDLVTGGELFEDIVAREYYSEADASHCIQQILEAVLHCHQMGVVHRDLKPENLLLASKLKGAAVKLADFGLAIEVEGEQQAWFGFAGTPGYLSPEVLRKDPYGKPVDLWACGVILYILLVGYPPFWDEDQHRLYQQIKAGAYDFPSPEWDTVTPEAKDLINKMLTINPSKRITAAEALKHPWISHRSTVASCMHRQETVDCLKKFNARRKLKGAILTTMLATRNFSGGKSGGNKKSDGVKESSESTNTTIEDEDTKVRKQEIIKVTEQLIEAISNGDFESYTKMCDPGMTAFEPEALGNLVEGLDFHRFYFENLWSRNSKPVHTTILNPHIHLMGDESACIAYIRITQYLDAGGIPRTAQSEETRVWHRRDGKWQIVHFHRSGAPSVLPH"}
{"SMILES": "COc1ccc(-c2cc(=O)c3c(O)cc(O[C@@H]4O[C@H](CO)[C@@H](O)[C@H](O)[C@H]4O)cc3o2)cc1O", "inhibition": "33%"}
{"SMILES": "N#C/C(=C1/SC[C@@H](c2ccc(Cl)cc2Cl)S1)n1ccnc1", "inhibition": "2%"}
{"SMILES": "COc1cc(O)c2c(c1)oc(=O)c1c3cc(O)c(O)cc3oc21", "inhibition": "19%"}
{"SMILES": "C=C[C@]1(C)CC[C@@H](C(=C)C)C[C@H]1C(=C)C", "inhibition": "24%"}
{"SMILES": "C=CCc1cc(OC)c(O)c(C(=O)NCCO)c1", "inhibition": "-8%"}
{"SMILES": "CO/N=C1\\C[C@]2(C[C@@H]3C[C@@H](C/C=C(\\C)C[C@@H](C)/C=C/C=C4\\CO[C@@H]5[C@H](O)C(C)=C[C@@H](C(=O)O3)[C@]45O)O2)O[C@H](/C(C)=C/C(C)C)[C@H]1C", "inhibition": "2%"}
{"SMILES": "CNC(=O)c1ccc(N2C(=S)N(c3ccc(C#N)c(C(F)(F)F)c3)C(=O)C2(C)C)cc1F", "inhibition": "-16%"}
{"data": "Series 2", "target": "Insulin receptor-related protein (INSRR, Homo sapiens, UniProt P14616)", "effect on": "enzyme activity", "mode": "inhibitor", "tested at": "0.5 µM", "reference": "control", "UniProt P14616, sequence (whole entry, looked up)": "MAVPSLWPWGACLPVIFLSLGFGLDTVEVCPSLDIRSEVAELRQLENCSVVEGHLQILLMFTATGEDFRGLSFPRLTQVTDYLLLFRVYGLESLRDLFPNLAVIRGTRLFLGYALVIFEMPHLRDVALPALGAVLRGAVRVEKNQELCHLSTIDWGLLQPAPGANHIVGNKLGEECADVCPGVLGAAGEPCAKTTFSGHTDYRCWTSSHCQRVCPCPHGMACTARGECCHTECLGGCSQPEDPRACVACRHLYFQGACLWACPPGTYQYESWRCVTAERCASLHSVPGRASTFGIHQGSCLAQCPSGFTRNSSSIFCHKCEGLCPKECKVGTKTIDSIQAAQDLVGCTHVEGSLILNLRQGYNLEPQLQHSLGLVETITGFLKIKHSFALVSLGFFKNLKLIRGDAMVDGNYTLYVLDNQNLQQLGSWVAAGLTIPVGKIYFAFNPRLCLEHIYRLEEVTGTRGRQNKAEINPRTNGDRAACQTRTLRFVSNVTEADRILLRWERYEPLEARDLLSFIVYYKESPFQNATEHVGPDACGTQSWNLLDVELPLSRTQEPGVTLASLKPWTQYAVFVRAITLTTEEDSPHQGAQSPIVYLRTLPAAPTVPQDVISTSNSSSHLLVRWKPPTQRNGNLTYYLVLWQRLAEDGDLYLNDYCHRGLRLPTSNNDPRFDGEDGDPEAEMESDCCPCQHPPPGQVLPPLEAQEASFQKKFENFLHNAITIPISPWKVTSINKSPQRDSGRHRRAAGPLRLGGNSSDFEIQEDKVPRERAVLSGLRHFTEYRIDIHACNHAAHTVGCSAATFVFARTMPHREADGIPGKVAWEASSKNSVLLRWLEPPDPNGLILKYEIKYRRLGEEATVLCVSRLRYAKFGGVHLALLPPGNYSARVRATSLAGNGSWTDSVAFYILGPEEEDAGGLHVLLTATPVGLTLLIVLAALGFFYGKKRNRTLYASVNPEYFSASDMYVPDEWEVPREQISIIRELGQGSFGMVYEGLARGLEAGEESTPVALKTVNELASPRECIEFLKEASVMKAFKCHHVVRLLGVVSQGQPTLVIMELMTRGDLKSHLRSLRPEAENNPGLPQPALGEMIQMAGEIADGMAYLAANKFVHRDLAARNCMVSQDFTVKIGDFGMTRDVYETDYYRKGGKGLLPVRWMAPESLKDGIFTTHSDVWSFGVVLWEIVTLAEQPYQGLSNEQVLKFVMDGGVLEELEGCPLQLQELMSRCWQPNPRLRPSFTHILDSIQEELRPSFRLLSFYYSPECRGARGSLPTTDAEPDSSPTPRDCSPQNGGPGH"}
{"SMILES": "O=C(c1ccccc1)c1ccc(N2CCOCC2)cc1O", "remaining activity [%]": 97.6}
{"SMILES": "O=C1c2ccccc2-c2nc3nnnn3nc21", "remaining activity [%]": 86.7}
{"SMILES": "N#CC(c1ccnc(NCCc2cccnc2)n1)c1nc2ccccc2s1 (centres unmarked)", "remaining activity [%]": 92.2}
{"SMILES": "CCN(CC)CCCCN1c2ccccc2Oc2ccc(Cl)cc21", "remaining activity [%]": 102}
{"SMILES": "O=C(O)/C=C/c1cc(Br)c(Br)c(Br)c1Br", "remaining activity [%]": 88.2}
{"SMILES": "CCCCc1c(-c2ccc(O)cc2)[nH]c2nccnc12", "remaining activity [%]": 86.6}
{"SMILES": "C[C@@H](N)[C@H]1CC[C@H](C(=O)Nc2ccncc2)CC1", "remaining activity [%]": 97.2}
{"SMILES": "COc1cc2c(N3CCN(C(=O)Nc4ccc(OC(C)C)cc4)CC3)ncnc2cc1OCCCN1CCCCC1", "remaining activity [%]": 98.9}
{"SMILES": "Nc1nc(Nc2ccc(S(N)(=O)=O)cc2)nn1C(=S)Nc1c(F)cccc1F", "remaining activity [%]": 86.5}
{"SMILES": "CC(C)n1cnc2c(Nc3cccc(Cl)c3)nc(NCCO)nc21", "remaining activity [%]": 82.5}
{"SMILES": "Clc1ccc(Nc2nnc(Cc3ccncc3)c3ccccc23)cc1", "remaining activity [%]": 93.5}
{"SMILES": "O=Nc1c(-c2c(O)[nH]c3ccccc23)[nH]c2ccccc12", "remaining activity [%]": 35.7}
{"SMILES": "CC(C)(C)c1nc2c3cc[nH]c(=O)c3c3cc(F)ccc3c2[nH]1", "remaining activity [%]": 75.2}
{"SMILES": "FC(F)(F)c1ccc(/C=C/c2nc(COc3ccc(CCCCn4ccnn4)cc3)co2)cc1", "remaining activity [%]": 101}
{"SMILES": "CC(C)N(CCC(=O)c1ccc2ccccc2c1)Cc1ccccc1", "remaining activity [%]": 90.1}
{"SMILES": "c1cc(-c2cnn3cc(-c4ccc(OCCN5CCCCC5)cc4)cnc23)ccn1", "remaining activity [%]": 90.1}
{"SMILES": "NC(=O)c1ccc(-c2nc(-c3ccc4c(c3)OCCO4)c(-c3ccccn3)[nH]2)cc1", "remaining activity [%]": 86.6}
{"SMILES": "N#C/C(=C(/N)SC1C=CC=CC1)c1cccc(C(O)c2ccncc2)c1 (centres unmarked)", "remaining activity [%]": 95.3}
{"SMILES": "O=c1c(-c2ccc(F)cc2)c(-c2ccncc2)[nH]n1-c1ccc(Cl)cc1", "remaining activity [%]": 95.4}
{"SMILES": "O=C1NC(=O)/C(=C/c2ccc3c(c2)OC(F)(F)O3)S1", "remaining activity [%]": 110}
{"SMILES": "NC(=O)c1cccc(-c2cc(Nc3ccc(OC(F)(F)F)cc3)ncn2)c1", "remaining activity [%]": 90.7}
{"SMILES": "COc1cc2c(Nc3ccc(Br)cc3F)ncnc2cc1OCC1CCN(C)CC1", "remaining activity [%]": 105}
{"SMILES": "CNc1cc2c(Nc3cccc(Br)c3)ncnc2cn1", "remaining activity [%]": 98.2}
{"data": "Series 3", "target": "DNA polymerase theta, ATPase domain (POLQ, Homo sapiens, UniProt O75417)", "effect on": "enzyme activity", "mode": "inhibitor", "tested at": "77 µM", "reference": "untreated", "UniProt O75417, sequence (whole entry, unmodified, looked up)": "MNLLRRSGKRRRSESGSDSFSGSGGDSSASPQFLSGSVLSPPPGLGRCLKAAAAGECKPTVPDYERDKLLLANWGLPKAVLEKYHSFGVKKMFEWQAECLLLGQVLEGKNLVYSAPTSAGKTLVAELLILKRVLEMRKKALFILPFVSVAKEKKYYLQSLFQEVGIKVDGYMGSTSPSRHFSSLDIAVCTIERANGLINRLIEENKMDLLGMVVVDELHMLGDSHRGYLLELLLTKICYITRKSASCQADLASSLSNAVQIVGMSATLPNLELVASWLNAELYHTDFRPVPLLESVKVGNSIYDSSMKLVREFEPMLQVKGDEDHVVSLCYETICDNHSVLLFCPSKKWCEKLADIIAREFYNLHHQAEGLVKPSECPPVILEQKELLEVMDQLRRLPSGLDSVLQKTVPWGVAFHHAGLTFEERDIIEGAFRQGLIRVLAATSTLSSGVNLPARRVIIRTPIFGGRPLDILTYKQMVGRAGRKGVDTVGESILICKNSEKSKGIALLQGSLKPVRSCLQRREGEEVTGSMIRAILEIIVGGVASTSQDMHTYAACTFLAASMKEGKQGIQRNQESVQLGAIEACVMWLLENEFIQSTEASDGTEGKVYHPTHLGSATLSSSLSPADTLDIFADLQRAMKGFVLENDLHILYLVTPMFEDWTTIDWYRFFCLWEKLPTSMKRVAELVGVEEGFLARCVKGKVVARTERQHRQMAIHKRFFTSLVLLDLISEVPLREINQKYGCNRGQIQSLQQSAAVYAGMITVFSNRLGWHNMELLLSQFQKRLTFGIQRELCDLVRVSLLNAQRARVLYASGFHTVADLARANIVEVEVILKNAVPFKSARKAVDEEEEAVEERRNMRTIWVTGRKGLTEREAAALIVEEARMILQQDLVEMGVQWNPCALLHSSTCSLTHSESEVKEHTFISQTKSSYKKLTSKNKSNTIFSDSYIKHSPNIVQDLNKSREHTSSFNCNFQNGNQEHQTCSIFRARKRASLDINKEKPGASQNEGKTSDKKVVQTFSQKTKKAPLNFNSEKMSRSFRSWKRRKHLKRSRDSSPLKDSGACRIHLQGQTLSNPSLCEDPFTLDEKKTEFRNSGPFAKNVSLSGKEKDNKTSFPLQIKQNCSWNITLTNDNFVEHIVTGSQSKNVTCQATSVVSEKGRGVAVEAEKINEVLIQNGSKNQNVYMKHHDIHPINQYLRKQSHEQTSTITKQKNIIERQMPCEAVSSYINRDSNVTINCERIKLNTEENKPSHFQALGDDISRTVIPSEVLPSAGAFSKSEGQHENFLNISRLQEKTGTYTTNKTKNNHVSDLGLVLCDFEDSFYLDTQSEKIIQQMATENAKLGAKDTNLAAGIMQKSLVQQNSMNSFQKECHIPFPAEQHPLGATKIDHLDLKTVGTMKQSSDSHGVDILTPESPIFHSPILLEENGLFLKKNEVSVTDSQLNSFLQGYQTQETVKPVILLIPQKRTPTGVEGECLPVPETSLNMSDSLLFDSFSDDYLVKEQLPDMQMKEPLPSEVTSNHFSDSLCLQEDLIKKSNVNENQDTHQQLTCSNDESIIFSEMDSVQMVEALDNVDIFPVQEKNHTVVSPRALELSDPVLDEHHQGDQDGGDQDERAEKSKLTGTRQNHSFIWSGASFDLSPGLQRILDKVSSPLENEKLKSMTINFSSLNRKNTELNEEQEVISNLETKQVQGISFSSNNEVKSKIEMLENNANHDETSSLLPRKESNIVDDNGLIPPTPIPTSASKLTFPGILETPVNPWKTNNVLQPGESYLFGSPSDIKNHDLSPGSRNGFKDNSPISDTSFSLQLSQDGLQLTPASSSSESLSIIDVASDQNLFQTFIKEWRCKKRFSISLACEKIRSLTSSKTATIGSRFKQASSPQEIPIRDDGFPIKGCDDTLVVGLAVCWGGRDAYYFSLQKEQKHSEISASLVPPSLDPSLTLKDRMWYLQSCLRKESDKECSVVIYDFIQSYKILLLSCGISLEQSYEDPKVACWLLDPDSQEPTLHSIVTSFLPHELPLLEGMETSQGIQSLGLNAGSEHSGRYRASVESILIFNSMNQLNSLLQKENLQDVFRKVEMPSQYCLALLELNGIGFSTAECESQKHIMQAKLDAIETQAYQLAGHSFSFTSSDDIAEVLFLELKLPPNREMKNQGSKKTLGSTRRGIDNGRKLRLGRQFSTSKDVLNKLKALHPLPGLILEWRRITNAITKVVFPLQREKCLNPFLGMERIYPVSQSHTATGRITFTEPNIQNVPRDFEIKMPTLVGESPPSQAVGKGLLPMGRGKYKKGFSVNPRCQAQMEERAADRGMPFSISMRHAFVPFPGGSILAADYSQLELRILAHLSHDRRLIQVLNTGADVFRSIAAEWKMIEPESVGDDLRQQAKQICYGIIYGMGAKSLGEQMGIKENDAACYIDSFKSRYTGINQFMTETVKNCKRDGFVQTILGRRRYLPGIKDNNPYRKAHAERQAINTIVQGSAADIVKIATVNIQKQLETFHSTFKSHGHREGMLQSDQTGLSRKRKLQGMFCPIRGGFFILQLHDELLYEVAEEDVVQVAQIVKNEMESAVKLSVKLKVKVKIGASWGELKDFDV"}
{"SMILES": "O=C1C(C2=C3c4ccccc4NC3/C(=C\\c3ccc(O)cc3)C2=O)=C2C(=Nc3ccccc32)/C1=C\\c1ccc(O)cc1 (centres unmarked)", "remaining activity": "83.8%"}
{"SMILES": "O=c1cc(-c2ccc(O)cc2)oc2c([C@@H]3O[C@H](CO)[C@@H](O)[C@H](O)[C@H]3O)c(O)cc(O)c12", "remaining activity": "94.4%"}
{"SMILES": "CC(C)C[C@H](NC(=O)[C@H](Cc1ccccc1)NC(=O)c1cnccn1)B(O)O", "remaining activity": "97.2%"}
{"SMILES": "CCCn1c(=O)c2[nH]c(-c3ccc(S(=O)(=O)O)cc3)nc2n(CCC)c1=O", "remaining activity": "92.3%"}
{"SMILES": "C=C1CC[C@H](O)C/C1=C/C=C1\\CCC[C@]2(C)[C@@H]([C@H](C)/C=C/[C@H](C)C(C)C)CC[C@@H]12", "remaining activity": "109% and 89.1%"}
{"SMILES": "Nc1nc(N)nc(-c2cc(Cl)ccc2Cl)n1", "remaining activity": "95.5%"}
{"data": "Series 4", "SMILES": "CC(=O)C1=C(C)N(c2cccc(C(F)(F)F)c2)C(=O)N[C@H]1c1ccc(C#N)nc1", "tested at": "10 µM"}
{"target": "Histamine H2 receptor (HRH2, Homo sapiens, UniProt P25021)", "assay": "ligand displacement", "inhibition [%]": 3.4}
{"target": "5-hydroxytryptamine receptor 1E (HTR1E, Homo sapiens, UniProt P28566)", "assay": "cell-free assay", "inhibition [%]": -20.9}
{"target": "Alpha-1A adrenergic receptor (ADRA1A, Homo sapiens, UniProt P35348)", "assay": "ligand displacement", "inhibition [%]": -5.26}
{"target": "Beta-3 adrenergic receptor (ADRB3, Homo sapiens, UniProt P13945)", "assay": "ligand displacement", "inhibition [%]": 17.2}
{"target": "Alpha-2B adrenergic receptor (ADRA2B, Homo sapiens, UniProt P18089)", "assay": "ligand displacement", "inhibition [%]": 11.8}
{"target": "D(3) dopamine receptor (DRD3, Homo sapiens, UniProt P35462)", "assay": "ligand displacement", "inhibition [%]": -6.43}
{"target": "Histamine H3 receptor (HRH3, Homo sapiens, UniProt Q9Y5N1)", "assay": "ligand displacement", "inhibition [%]": -11.2}
{"target": "Muscarinic acetylcholine receptor M4 (CHRM4, Homo sapiens, UniProt P08173)", "assay": "ligand displacement", "inhibition [%]": 2.88}
{"target": "Beta-1 adrenergic receptor (ADRB1, Homo sapiens, UniProt P08588)", "assay": "ligand displacement", "inhibition [%]": 8.09}
{"target": "D(1A) dopamine receptor (DRD1, Homo sapiens, UniProt P21728)", "assay": "ligand displacement", "inhibition [%]": -12.6}
{"target": "5-hydroxytryptamine receptor 1D (HTR1D, Homo sapiens, UniProt P28221)", "assay": "cell-free assay", "inhibition [%]": -16.4}
{"note": "A few entries again (series 2):"}
{"SMILES": "C[C@@H](N)[C@H]1CC[C@H](C(=O)Nc2ccncc2)CC1", "remaining activity [%]": 97.2}
{"SMILES": "COc1cc2c(N3CCN(C(=O)Nc4ccc(OC(C)C)cc4)CC3)ncnc2cc1OCCCN1CCCCC1", "remaining activity [%]": 98.9}
{"SMILES": "Nc1nc(Nc2ccc(S(N)(=O)=O)cc2)nn1C(=S)Nc1c(F)cccc1F", "remaining activity [%]": 86.5}
{"SMILES": "CC(C)n1cnc2c(Nc3cccc(Cl)c3)nc(NCCO)nc21", "remaining activity [%]": 82.5}
{"SMILES": "Clc1ccc(Nc2nnc(Cc3ccncc3)c3ccccc23)cc1", "remaining activity [%]": 93.5}
